Measured values from different studies.
± marks the error that the study gave.
Cell line: MDA-MB-468

Compound | test | conditions | IC50
CCN(CC)CCCC(C)Nc1c2ccc(Cl)cc2nc2ccc(OC)cc12 (stereo not shown) | cell growth or viability, MTT | 96 h | 1.7 µM
C/C(=C\C(=O)N[C@H]1CCc2cccc3c2N(C1=O)[C@H](C(=O)N[C@H](C)CCC(N)=O)C3)c1ccc(C(F)(F)P(=O)(OCOC(=O)C(C)(C)C)OCOC(=O)C(C)(C)C)cc1 | cell growth, MTT | 72 h, 10% FBS | ~30 µM
CC(NC1=NS(=O)(=O)c2ccc(Cl)cc2N1)c1ccccc1 (stereo not shown) | cell growth or viability, MTS | 72 h | 43.5 µM
Cc1c(-c2ccc(C(=N)N)cc2)oc(-c2ccc(C(=N)N)cc2)c1C | cytotoxicity, MTT | 3 h exposure, 96 h total | 14 ± 2 µM
CC(=O)c1c(C)c2cnc(Nc3ccc(N4CCNCC4)cn3)nc2n(C2CCCC2)c1=O | cell growth or viability | 6 days | > 5 µM
O=S1(=O)N=C(NCc2ccc(OC(F)(F)F)cc2)Nc2ccccc21 | cell growth or viability, MTS | 72 h | 19.6 µM
CC(C)Cc1ccc([C@H](C)C(=O)O)cc1 | cell growth or viability, SRB | 72 h | > 625 µM
O=c1[nH]cc(F)c(=O)[nH]1 | cell growth or viability, MTS | 72 h | 6.83 µM
Nc1c2ccccc2nc2ccccc12 | cell growth or viability, MTT | 96 h | 1.1 µM
CCCC[C@H](NC(=O)/C=C(\C)c1ccc(C(F)(F)P(=O)(OCOC(=O)C(C)(C)C)OCOC(=O)C(C)(C)C)cc1)C(=O)N1C[C@@H]2C[C@@H]2[C@@H]1C(=O)N[C@@H](CCC(N)=O)C(C)OCc1ccccc1 (stereo partly shown) | cell growth, MTT | 72 h, 10% FBS | 10 to 15 µM

Excerpt of the above:
Compound | test | conditions | IC50
Cc1c(-c2ccc(C(=N)N)cc2)oc(-c2ccc(C(=N)N)cc2)c1C | cytotoxicity, MTT | 3 h exposure, 96 h total | 14 ± 2 µM
CC(=O)c1c(C)c2cnc(Nc3ccc(N4CCNCC4)cn3)nc2n(C2CCCC2)c1=O | cell growth or viability | 6 days | > 5 µM
